Results pooled from the literature.
Every numbered part comes from another study and shows a few of its results, in no order. Substitutions count along the parent as printed.

Block 1
Partner: Histone H2B type 1-C/E/F/G/I (Homo sapiens, UniProt P62807)
Method: cross-linking MS
Setting: hits only
Molecule | interaction screen
H2AC11 (Homo sapiens, UniProt P0C0S8) | cross-linked
H1-4 (Homo sapiens, UniProt P10412) | cross-linked
H2AC7 (Homo sapiens, UniProt P20671) | cross-linked
PPM1G (Homo sapiens, UniProt O15355) | cross-linked
HMGN1 (Homo sapiens, UniProt P05114) | cross-linked
H2BC5 (Homo sapiens, UniProt P58876) | cross-linked
Histone H2A type 1-B/E (Homo sapiens, UniProt P04908) | cross-linked
HMGA1 (Homo sapiens, UniProt P17096) | cross-linked
HMGB2 (Homo sapiens, UniProt P26583) | cross-linked

Block 2
Target: RNA binding protein fox-1 homolog 2, RRM domain, GST-SBP tag (RBFOX2, Homo sapiens, UniProt O43251-10, residues 100-194)
Method: RNA Bind-n-Seq
Form: RNA
Sample: in vitro
Concentration: 365 nM
Setting: natural RNA segment, single round, ends assumed
Relative to: no-protein control
Direction: higher = stronger binding
Shared flanks, not repeated: GGGAGUUCUACAGUCCGACGAUC … UGGAAUUCUCGGGUGCCAA
Construct (chain): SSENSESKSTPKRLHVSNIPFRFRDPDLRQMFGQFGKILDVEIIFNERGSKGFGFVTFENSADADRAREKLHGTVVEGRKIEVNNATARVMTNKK
Oligonucleotide | RBNS enrichment (R)
GCCCCAUCCCUCCUAGGAAGAGAGAACUUUGCUGACGAUCUCACUACUUUUGAAGAAAAGAAGCCCUAUCUGGAGACUUGACUCCAGAGCGAAGCCCUAUCUGGAGACUU | 0.372
AAGUCCUAGAAAAUAGAAAAUGUAAUUUUAAACUAUUCCAAUAAAGCUGGAGGAGGAAGGGGAGUUUUGACUAAAGUUCCUUUUGUUUGUUUUAAAUUUUCAUCAAUGUA | 0.647
CCAGUCUUCCCCGUGUGCCGGCUGCGAGCCUCCUUGCUCCUGCAUCUCGACCAUUCCGUGUUGGCUGUGUCGCCUGACCUGCGUACCUGUGGAGGAUUCGGAACAAGUCA | 0.604
AUCUUCCUGAUCGUGGGUGAGGGAGGCCUUCCUGCUUGUUCCUUCGCAUUCUCGUGGUCUAGGCUGGGGGAGGGGUUAUCCACCUGUAGCUCUUUCAAUUGAGGUGGUUC | 1.05
ACUUGUUAAUUUAGUUUUCUCCUUAGAGACUUUGAGACCCUUAAGAGACAAGAUUGAGAAAGAGCCAUGUGGCUUGGCUCUAGAAACGUCAUUAUCAUUAGGACCAUCAG | 0.48
UGUAAUGUCAGCUGGCAUCAUACAAAGAGCAGGAGAAGCAAACACCCAGAACUCUUUUGCUGGUCAGAGAUUCCCUGAGUGUCUGUCCUCACCCAAGCCUGCUCUGUGUC | 0.262
UAGGCUGAGCAGUGCAGCGGCGCCCACAGGUUUACACACAAGUUUGGUUUGGUUUCUUCUGUUCUGCACUUUGGAGUCCCUGGGUAUUCCACAUUACAAGUUGAUGUUAU | 0.27
CACAAAAGCUAAAGCAGUGGCUGGGGCUUUGUUUUUAAAUUUUGGGUUUUUUUUUUUGUUGUUGUUAAUGAGCAGAAAGAGAGACAUAAUGACAGCUGAUGUUAAACUUU | 1.15
CUGCAGUGCUACAACGUGCUGGAAGAUGUGUCAGAUUUGCUUUAAAGAUGAGAAUCUGGUGUUUCUGUACUUUAUUAUUUUCAAUAAAACUCAAUGUUUUGAACUUUUAA | 0.307
GUUUUAAAUGCAGCUUUCUGUAGAGAUUCUACCUGCAGUCUGUUCUCUCUUGGGGUUCCACACCCAUUUCUUGCCAGCAGCUCCCAGUGAUGCUGUGUUUUGUAUGUUAG | 0.592
UUGCAGUAGCAGCAGGGGCUGGGACGGGAUACUUUCUCUUCAGCUGGAAGAAGGCAGUGGUGGUGGACAUCACAGAGCACUGCCAUUGAUAUCAGACUCCACAUAUGGCC | 0.287
CGGAACAUCUGGCCCAGCAGGCCCAGACUGUAUCCAUCCAAGUUCCCGUUGUAUCCAGAGUUCUUAGAGCUUGUGUCUAAAGGGUAAUUCCCCAACCCUUCCUUAUGAGC | 0.353

Block 3
Target: PABPC1L2, full length, GST fusion (mouse, UniProt A0ABA7IW68)
Method: RNAcompete
Form: RNA
Sample: in vitro
Concentration: 20 nM
Setting: 7-mer, probes averaged, single round
Relative to: mean of 7-mers
Direction: higher = stronger binding
Construct (chain): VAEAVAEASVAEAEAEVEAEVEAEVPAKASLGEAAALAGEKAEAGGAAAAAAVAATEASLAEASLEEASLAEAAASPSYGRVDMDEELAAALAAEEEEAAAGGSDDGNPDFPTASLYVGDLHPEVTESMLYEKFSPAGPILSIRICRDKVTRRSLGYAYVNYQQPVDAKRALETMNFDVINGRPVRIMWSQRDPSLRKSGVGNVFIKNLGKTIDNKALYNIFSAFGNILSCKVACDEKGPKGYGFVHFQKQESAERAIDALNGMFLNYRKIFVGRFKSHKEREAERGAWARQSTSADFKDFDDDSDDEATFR
Oligonucleotide | 7-mer Z-score
UCUAAAU | 0.273
ACGCUCC | -0.11
ACCUGAC | -0.2
CUUGCAU | -0.322
UAGGAGG | 0.215
CGAGAUU | -0.0464
CUAUUUU | -0.351
AACGACA | 0.338
AUAAUGG | 0.046
AGGGGGG | 0.441
AAACUAC | 0.82
AACCACG | 0.0805
GCAUUGC | -0.179
UAUACUG | -0.329
CCAUGGU | -0.171
CAAAGCC | -0.157
CAUCACU | -0.19
GAUUUGA | -0.266
GCGACCA | 0.109
ACUACCU | -0.204
AUAGAAG | 0.314
UGCGUGG | 0.349

Block 4
Target: Interferon regulatory factor 5, full length, phosphomimetic (IRF5, Homo sapiens, UniProt Q13568-2, residues 1-514, S451D/S453D/S456D/S462D)
Method: protein-binding microarray
Form: double-stranded DNA, one strand shown
Sample: in vitro
Concentration: 940 nM top
Setting: 60-bp whole probe
Added: salmon DNA 0.4 mg/ml
Relative to: random background probes
Direction: higher = stronger binding
Shared flanks, not repeated: GCCTAGCAC … GTCTTGATTCGCTTGACGCTGCTG
Oligonucleotide | fitted relative affinity [z-score]
ACCCGTACTGGGTCTGGATCGTGCTAG | -0.331
GACGGTCTCCTTATCGTGACGTGCTAG | 0.282
ATAGGACTGGGGTTTCGGTTAGTGCTA | 5.63
TTCTATGACTACATTGCAGCGTGCTAG | -0.0826
GACGGTCTCCTTATCCTTACGTGCTAG | 0.655
TTAGAACTGAGTATCGATGAGTGCTAG | 3.19
CCATTCTTGGGACTCACCTGGTGCTAG | -0.153
GACGGACTGGGTTTCAGGACGTGCTAG | 0.394
TTAGGATTCCTTATCCTTTAGTGCTAG | -0.0792
TTAGGTATCTGTATCGGTTAGTGCTAG | 3.93
TCATTTCTCCTTTGTAAACTGTGCTAG | 1.18
GCACCTCTAGACTCTAAATTCGTGCTA | -0.0296
TTAGATTTCAGTTTCGATTGGTGCTAG | 9.19
TCATTTTCAATTTTTGCACTGTGCTAG | 1.28
TCAAATCTTTTTCCCTAACTGTGCTAG | 1.16
TCAGTTTTCTCTATTGCACTGTGCTAG | 1.93
GACGGACTGGGTTTCGTGACGTGCTAG | 0.695
GACGATATCAGTTTCGAGATGTGCTAG | 3.71
TTCGATTTCAGTTCCGATTAGTGCTAG | 2.06
GAAGATATCAGTTTCGAGACGTGCTAG | 3.55

Block 5
Target: ABI1, truncated, D143A, DHFR fusion (Arabidopsis thaliana)
Method: DHFR PCA, deep sequencing
Sample: yeast
Setting: methotrexate growth selection, single substitutions
Added: (+)-ABA 0.11 µM
Relative to: wild-type fitted maximum
Direction: higher = stronger binding
Starting sequence: PYL1, truncated, DHFR fusion (Arabidopsis thaliana); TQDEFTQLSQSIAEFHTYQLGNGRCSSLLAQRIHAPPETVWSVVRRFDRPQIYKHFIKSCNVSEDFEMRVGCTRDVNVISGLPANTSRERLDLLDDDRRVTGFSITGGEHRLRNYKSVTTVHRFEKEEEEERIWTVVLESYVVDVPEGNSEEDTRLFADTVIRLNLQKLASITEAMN
Substitution | relative binding score [%]
V136N | -4.65
C72V | 37.3
A170H | -0.939
Q167N | 16.5
L166I | -1.37
H55L | 27.3
G148Y | -6.35
D75Y | 34.1
R111Y | 2.26
G23E | 4.36
I33Q | -2.98
Q51P | -1.55
L94V | -1.7
P50K | -2.9

Block 6
Target: CCND3, cyclin fold, Cln2 fusion (human)
Method: yeast growth competition, sequencing
Sample: yeast
Setting: weak parent motif
Relative to: not given
Direction: higher = stronger binding
Starting sequence: CDKN1A docking peptide (human); SKACRRLFGPVDS; partner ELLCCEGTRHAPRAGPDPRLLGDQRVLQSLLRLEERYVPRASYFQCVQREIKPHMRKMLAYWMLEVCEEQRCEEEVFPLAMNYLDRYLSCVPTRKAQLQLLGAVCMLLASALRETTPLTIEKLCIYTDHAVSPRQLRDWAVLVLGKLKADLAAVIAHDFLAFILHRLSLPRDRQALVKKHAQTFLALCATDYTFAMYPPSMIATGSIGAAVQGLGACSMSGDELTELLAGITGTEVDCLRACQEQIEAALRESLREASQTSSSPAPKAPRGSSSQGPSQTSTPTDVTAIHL
Substitution | normalised enrichment score
SKACRRLFGPVLS [D12L] | 0.0599
SKACRRPFGPVDS [L7P] | 0.0486
SKACRRLVGPVDS [F8V] | 0.301
SKACRRLFLPVDS [G9L] | 0.431
SKACRRLFGCVDS [P10C] | 0.297
SKACRRLFPPVDS [G9P] | 0.103
SKGCRRLFGPVDS [A3G] | 0.0305
SKACWRLFGPVDS [R5W] | 0.179
SKACRRLFGPPDS [V11P] | -0.023
SKAVRRLFGPVDS [C4V] | 0.29
SKACSRLFGPVDS [R5S] | -0.16
SCACRRLFGPVDS [K2C] | -0.0794
SKACRRLFGPMDS [V11M] | 0.506
SKACRRLFGPVHS [D12H] | 0.035
SKACRRLFGPVQS [D12Q] | -0.0558
SKAKRRLFGPVDS [C4K] | 0.283
SKACRGLFGPVDS [R6G] | -0.221
SKADRRLFGPVDS [C4D] | 0.138
SYACRRLFGPVDS [K2Y] | 0.628
SKACLRLFGPVDS [R5L] | -0.00854

Further values, each from its own experiment
Molecule | target | test | test system | setting | how to read | measurement | result
PhoQ, residues 284 288 289 292 302 303 ASTSDA | PhoP, residues 12 14 15 18 19 SQCLL (Escherichia coli, UniProt P23836) | Sort-seq, item: YFP reporter | E. coli | PhoQ-PhoP variant library, added: 10 µM Mg2+ | relative to: high Mg2+ state, higher = stronger signaling | fold induction | 12.6
